Assay results from different studies.
Parts stem from different laboratories: compare values within a part only. Substitutions count along the parent as printed.

Sample 1
Target: ABI1, truncated, D143A, DHFR fusion (Arabidopsis thaliana)
Method: DHFR PCA, deep sequencing
Matrix: yeast
Notes: methotrexate growth selection, single substitutions
With: (+)-ABA 2500 µM
Relative to: wild-type fitted maximum
Direction: higher = stronger binding
Starting sequence: PYL1, truncated, DHFR fusion (Arabidopsis thaliana); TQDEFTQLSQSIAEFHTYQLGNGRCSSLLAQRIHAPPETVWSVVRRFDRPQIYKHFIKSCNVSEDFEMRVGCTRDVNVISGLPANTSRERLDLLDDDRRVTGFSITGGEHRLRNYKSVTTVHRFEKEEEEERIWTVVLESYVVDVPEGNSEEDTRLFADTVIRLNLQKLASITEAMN
For `V44A`, “relative binding score” read 100%.
Under “relative binding score”, `E151S` is recorded as 95.6%.
For `V100E`, “relative binding score” read 41.1%.
For `A158P`, “relative binding score” read 42.8%.
For `L164K`, “relative binding score” read 93.5%.
Under “relative binding score”, `V76K` is recorded as 33.2%.
`E128I` — result for “relative binding score”: 100%.
`S27A` — result for “relative binding score”: 96.8%.
`R99L` — result for “relative binding score”: 106%.
`T6C`: “relative binding score” 101%.
`E131C`: “relative binding score” 101%.
For `V100C`, “relative binding score” read 99.2%.
`R98L`: “relative binding score” 107%.
`E38N` — result for “relative binding score”: 93%.
For `C60P`, “relative binding score” read 31.7%.
`I162K` — result for “relative binding score”: 59.9%.
For `F157A`, “relative binding score” read 54.5%.

Sample 2
Target: Probable WRKY transcription factor 11, DNA-binding domain (WRKY11, Arabidopsis thaliana, UniProt Q9SV15, residues 228-325)
Method: DNA-protein interaction ELISA
Molecule type: double-stranded DNA, one strand shown
Matrix: in vitro, bacterial lysate
Tested at: not given
Notes: whole dsDNA probe, crude lysate protein
Relative to: highest signal in screen
Direction: higher = stronger binding
Construct (chain): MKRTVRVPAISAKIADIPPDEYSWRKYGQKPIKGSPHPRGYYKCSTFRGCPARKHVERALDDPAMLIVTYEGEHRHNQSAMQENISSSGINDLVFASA
With `AAAAAATCGTAAATGCCCATAGCCGTAAAA` the relative absorbance was 13.8 % of maximum.
`AAAAAACCAACTCTCTTTCGGACTATAAAA` gave a relative absorbance of 16.1 % of maximum.
The relative absorbance of `AAAAAATGGGGCTCTGGCCCACCGTAAAAA` is reported as 13.5 % of maximum.
`AAAAAAAGTTACCAGTACGCGTCGGGAAAA` gave a relative absorbance of 15.6 % of maximum.
The relative absorbance of `AAAAAATGTGGTTACGGCCTCGATGAAAAA` is reported as 14.1 % of maximum.
For `AAAAAAGTTCGTGCTTAACCCAGTTTAAAA`, the relative absorbance was 17.9 % of maximum.
The relative absorbance of `AAAAAATGAGAGAATTTCCGGTTCAGAAAA` is reported as 15.6 % of maximum.
With `AAAAAAGGGTCGCTGTGAGCTCATGAAAAA` the relative absorbance was 14.1 % of maximum.
For `AAAAAACTGGATGCGCTCACCAGTTAAAAA`, the relative absorbance was 13 % of maximum.
For `AAAAAAGGACGTCTTCGGTATGAGTGAAAA`, the relative absorbance was 20.2 % of maximum.

Sample 3
Target: Interferon regulatory factor 3, full length, phosphomimetic (IRF3, Homo sapiens, UniProt Q14653, residues 1-427, S386D/S396D/S398D/S402D/T404D/S405D)
Method: protein-binding microarray
Molecule type: double-stranded DNA, one strand shown
Matrix: in vitro
Tested at: 2540 nM top
Notes: 60-bp whole probe
With: salmon DNA 0.4 mg/ml
Relative to: random background probes
Direction: higher = stronger binding
All sequences stand within: GCCTAGCAC … GTCTTGATTCGCTTGACGCTGCTG
Construct (chain): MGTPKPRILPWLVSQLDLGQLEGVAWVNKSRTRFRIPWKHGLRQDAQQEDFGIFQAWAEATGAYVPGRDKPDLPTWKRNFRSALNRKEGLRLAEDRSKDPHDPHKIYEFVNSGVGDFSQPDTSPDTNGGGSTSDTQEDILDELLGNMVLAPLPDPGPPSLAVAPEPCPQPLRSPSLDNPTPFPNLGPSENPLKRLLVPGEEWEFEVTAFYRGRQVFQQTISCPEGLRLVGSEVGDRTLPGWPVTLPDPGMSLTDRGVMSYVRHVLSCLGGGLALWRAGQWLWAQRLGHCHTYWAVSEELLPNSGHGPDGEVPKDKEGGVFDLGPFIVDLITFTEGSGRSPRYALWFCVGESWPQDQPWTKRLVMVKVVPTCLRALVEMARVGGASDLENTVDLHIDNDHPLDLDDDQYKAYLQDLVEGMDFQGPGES
`GACGGTATCGGACTGGGGAAGTGCTAG`: “fitted relative affinity” 1.55 z-score.
For `GACTGTATCCTTTTCCTGACGTGCTAG`, “fitted relative affinity” read 7.19 z-score.
Under “fitted relative affinity”, `GTCGGACTGGGTTTCGGGACGTGCTAG` is recorded as 1.55 z-score.
Under “fitted relative affinity”, `TCATTTTTTTTTTCTACACTGTGCTAG` is recorded as 1.72 z-score.
`TAGCATGTAATTTGTTTGCAGTGCTAG`: “fitted relative affinity” -0.335 z-score.
For `TTAGGTTTCCTTATCCTTTCGTGCTAG`, “fitted relative affinity” read 8.19 z-score.
`TTATGTATCGGACTGGGTTAGTGCTAG`: “fitted relative affinity” 1.16 z-score.
`TTTAGAAAGATTAGGGGTGCGTGCTAG` — result for “fitted relative affinity”: -0.475 z-score.
For `TCATCTTTCACTGGTCCTACTGTGCTA`, “fitted relative affinity” read 1.12 z-score.
`CTGTTAAAGAATTAAGAAGGGTGCTAG`: “fitted relative affinity” 0.349 z-score.
`GAAGATATCGGGACTGGAGACGTGCTA` — result for “fitted relative affinity”: -0.345 z-score.
`GACGGTTTCCTTATGCTGACGTGCTAG`: “fitted relative affinity” 6.56 z-score.
`TCACCTTTGCCTCATCTTACTGTGCTA`: “fitted relative affinity” 0.828 z-score.
`CTAGATTTCGGGTATCGATTAGTGCTA` — result for “fitted relative affinity”: 1.61 z-score.
For `TTAGGACCGGGACTGGGTTAGTGCTAG`, “fitted relative affinity” read -0.57 z-score.
`GACGAACTGGGGGTTCGAGACGTGCTA`: “fitted relative affinity” -0.477 z-score.
`TCAGTTGTGATTCTTTCACTGTGCTAG` — result for “fitted relative affinity”: 1.15 z-score.
For `GACGATTCCACTTTCGAGACGTGCTAG`, “fitted relative affinity” read 2.63 z-score.

Sample 4
Target: RNA binding protein fox-1 homolog 2, RRM domain, GST-SBP tag (RBFOX2, Homo sapiens, UniProt O43251-10, residues 100-194)
Method: RNA Bind-n-Seq
Molecule type: RNA
Matrix: in vitro
Tested at: 365 nM
Notes: natural RNA segment, single round, ends assumed
Relative to: no-protein control
Direction: higher = stronger binding
All sequences stand within: GGGAGUUCUACAGUCCGACGAUC … UGGAAUUCUCGGGUGCCAA
Construct (chain): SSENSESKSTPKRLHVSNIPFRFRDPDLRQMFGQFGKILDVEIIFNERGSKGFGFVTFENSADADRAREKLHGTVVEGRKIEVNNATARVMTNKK
Under “RBNS enrichment (R)”, `AUUAUUUUAAGUAAUGUUAAUUGAAAAAAUUUUUUCUUUUUGACAAUAUAAAAAACAUUUUAAAUUUCCUAGAAAUGUCUUCAGGGUAAUGCCAAUUUAAGAUCUCUCUU` is recorded as 0.628.
For `UCCAGGAGAAGGCCAAUUCCUAUACGCAGCGUGCUUUAAAAAAUAAAUAAGAAACAACUCUUUGAGAAACAACAAUUUCUACUUUGAAGUCAUACCAAUGAAAAAAUGUA`, “RBNS enrichment (R)” read 0.7.
For `UAAGCAGGCAAGGGUCACUGCAGGCAUGAAGCUUGGAUUGCUUCAGAUGGUUUGCCGUAUCGUUUUUCUUCCUUUUCCUUUUCUGGGGACUUGUUUCCAUUCAAUGACAA`, “RBNS enrichment (R)” read 0.944.
For `CAUCCUUGUAAUACCUGAUUGAUCACACAGUGUUAGUGCUGGUCAGAGAGACCUCAUCCUGCUCUUUUGUGAUGAACAUAUUCAUGAAAUGUGGAAGUCAGUACGAUCAA`, “RBNS enrichment (R)” read 0.259.
`ACCUUUGUGGGGGGCUUUUGAGGACCCAGCUGCGUCAGGAGUUUUGCUUCAAGAUGUCAGAAAGUCAAGUUCAGCUAAGAGACACCCAGGUCCCCAGCUUGCCCUGAGCA` — result for “RBNS enrichment (R)”: 0.324.
Under “RBNS enrichment (R)”, `CUGCGGCCUGACUGACGCCUUUUGAUGCUCACGGGAAAUUUCUGCCCAGGAUCUCAGCCCCAGGCUGGUUGUUUCUACAAAUCUCUCUCAAAUGUAUUAUUUUGGUGACA` is recorded as 0.296.
For `GGGCCAGACAGCAGCUCCCUGUCAGACGGCCAACAAGAGUUCUCUGGAAUGCUUGUGAGUCCGUUCCCACAGGCUCACAGUGUCAGGAGAGAGUGGCAGAUGCUCCAGUU`, “RBNS enrichment (R)” read 0.392.
For `CUGUACUAGUUACUAUGAAAAUGGAAAUAAUUAUCUUAGAAUAUUUUCAAAGUAGAGCGUGAGCAUGUAUUUUUAGUGGGAGAGCUCUGAUAGUUGUUGGGAAUAUAUAA`, “RBNS enrichment (R)” read 1.99.

Repeated from above (sample 2):
For `AAAAAAGGACGTCTTCGGTATGAGTGAAAA`, the relative absorbance was 20.2 % of maximum.
The relative absorbance of `AAAAAATGGGGCTCTGGCCCACCGTAAAAA` is reported as 13.5 % of maximum.
The relative absorbance of `AAAAAATGTGGTTACGGCCTCGATGAAAAA` is reported as 14.1 % of maximum.
For `AAAAAAGTTCGTGCTTAACCCAGTTTAAAA`, the relative absorbance was 17.9 % of maximum.
